Measurements from different studies.
Cell line: BT-20

With `CNS(=O)(=O)Nc1nccc(Cc2c(C)c3ccc(Oc4ncccc4F)cc3oc2=O)c1F` the IC50 was over 1 µM (cell viability; 7 days).
`COC(=O)N1c2ccc3c(nc(Cc4ccccc4)n3[C@@H]3CCC[C@@H](C(=O)O)C3)c2CC[C@@H]1C` gave an IC50 of 9.66 µM (cell growth or viability, ATP luminescence; 10 days).
The EC50 of `Cc1cc(C)nc(NC(=S)N2CCN(c3ccncc3)CC2)c1` is reported as over 100 µM (cell viability, CellTiter-Glo; 4 days).
`CC(C)c1ccc(N(C)c2ccc3c(c2)OCC[C@H]3CNc2cnccc2C(=O)O)cc1` has an IC50 of at least 10 µM (cell growth or viability, ATP luminescence; 7 days).
The IC50 of `Cc1cc([C@H](C(=O)N2C[C@H](O)C[C@H]2C(=O)N[C@@H](CC(=O)N2CCC(N3CCC(C#Cc4ccc(C(=O)N[C@H]5C(C)(C)[C@H](Oc6ccc(C#N)c(Cl)c6)C5(C)C)cc4)CC3)CC2)c2ccc(-c3scnc3C)cc2)C(C)C)on1` is reported as over 10 µM (cell growth or viability; 7 days).
For `CC(C)=CC1OC(C)(C)C2C=C3C(=O)C(Cl)=CC(O)C3C3C(O)C4OC4C(=O)C132` (centres unmarked), the IC50 was 9.14 µM (cell growth or viability, MTS).
For `CCN(C(=O)c1cc(F)ccc1Oc1nncnc1N1CCC2(C1)CN([C@H](CCCN(C)CCOC)C(C)C)C2)C(C)C`, the GI50 was over 10 µM (cell growth or viability; 7 days).
`CC1(C)[C@H](NC(=O)c2cnn(CCO)c2)C(C)(C)[C@H]1Oc1ccc(C#N)c(Cl)c1` gave an IC50 of over 10 µM (cell growth or viability; 7 days).
